# Measured values pooled from the literature.
# Each numbered part is a random draw from the data of one study; scales do not carry over between parts. Positions count from the first letter of the parent shown.

# Series 1 — target: CCNE1, cyclin fold, Cln2 fusion (human); method: yeast growth competition, sequencing; matrix: yeast; setting: strong parent motif; baseline: not given; direction: higher = stronger binding
# Starting sequence: RBL2 docking peptide (human); STTRRRLFVENDS; partner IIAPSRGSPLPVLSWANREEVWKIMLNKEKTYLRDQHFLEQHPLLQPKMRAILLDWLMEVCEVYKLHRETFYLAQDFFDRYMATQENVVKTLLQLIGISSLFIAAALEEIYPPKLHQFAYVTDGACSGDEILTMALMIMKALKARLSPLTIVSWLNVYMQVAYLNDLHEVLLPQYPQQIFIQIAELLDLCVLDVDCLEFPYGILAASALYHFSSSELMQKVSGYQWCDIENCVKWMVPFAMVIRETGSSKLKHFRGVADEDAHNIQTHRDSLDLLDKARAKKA
Change,normalised enrichment score
E10W,1.42
E10P,3.09
T2M,5.66
R5H,0.648
N11C,6.16
V9S,5.25
L7I,2.03
D12V,4.12
V9R,4.13
S13N,4.85
R4I,4.86
R5D,-0.237
N11I,3.77
T3R,0.677
V9T,7.07
N11G,5.7
L7V,0.0681
T2A,5.6
R6V,4.31
R6L,2.47
F8L,0.583
T2N,6.32
R5K F8L,-0.128
F8M,-0.144

# Series 2 — method: RNA Bind-n-Seq; molecule type: RNA; matrix: in vitro; tested at: not given; baseline: input RNA pool; direction: higher = stronger binding
# Target: RING finger protein unkempt homolog, zinc fingers 1-6, GST-SBP tag (UNK, Homo sapiens, UniProt Q9C0B0, residues 30-357)
# Setting: RNA with constant flanks, human and mouse sites, ends assumed
# Shared flanks, not repeated: GGGAGUUCUACAGUCCGACGAUC … CAACAGAGGAUUGAGCAUCA
# Target sequence (chain): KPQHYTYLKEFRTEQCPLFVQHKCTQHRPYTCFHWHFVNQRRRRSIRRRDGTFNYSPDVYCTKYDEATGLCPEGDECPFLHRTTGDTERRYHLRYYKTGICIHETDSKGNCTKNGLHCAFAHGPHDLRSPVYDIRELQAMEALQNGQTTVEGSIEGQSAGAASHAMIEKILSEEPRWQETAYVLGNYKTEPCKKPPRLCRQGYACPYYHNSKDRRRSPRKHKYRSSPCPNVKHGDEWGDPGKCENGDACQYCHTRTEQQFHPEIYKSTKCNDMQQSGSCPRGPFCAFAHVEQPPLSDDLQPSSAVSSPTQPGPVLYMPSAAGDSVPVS
Sequence,bound/input enrichment [ratio]
UCUGUCAAGAUCAAGAAGAACAAGGAUAAUGUGAAGUUCAAGGUUCGCUGCAGCAGGUACCUUUACACCCUGGUUAUCACAGACAAGGAAAAGGCAGAGAAGCUGAAGCAGUCCCUACCC,0.102
UGAGCUGAGCUACUUGCCAGUCAGAAUGCAGACUUGGAAUCCUGGAUCAGAGACUUGUCACAGACAGAUUCACUAAUCCUAAGUGGAGACUGGAGGGAUCUAAAUAACCCCUCUGUCAUC,0.0331
GCAAGGCCAGAGGAACUGACUCCCCACGUGAUGGUGCUCCUGGCCCAGCACCUGGCCCGGCACCGGUUGCGGGAGCCCCAGCUUCUGGAAGCCAUUGCCCACUUCCUGGUGGUUCAGGAA,0.0634
GAGCCCAGCCGGCAGUUUGUAAAGGACUCAAUUCGGCUGGUUAAAAGAUGCACCAAACCCGACAGAAAAGAAUUCCAGAAGAUUGCCAUGGCUACAGCUAUAGGAUUUGCUAUCAUGGGA,0.161
AAUGCUAGUGUGAUAAUGCAAGUUCCGGAGAGGAUUGUUGUAGCAGGAAAUAAUGAAGAUGUUUCAUUUUCAAGACCAGCAGAUCUUGACCUUAUUCAGUCAACUCCCUUUAAACCCCUG,0.21
ACUUUUGCGGAUGAGUUGGUGGAGCUCAGCACAGCCCUGGAGCACCAGGAAUAUAUCACCUUUCUUGAGGACCUCAAAAGCUUUGUCAAGAACCAGUAGAACUCAGAGACUGCGGGCCUU,0.338
GAAUUUAAUUGGUGAUGCCUUUGUGUCUAGAAGGCACACAUCCCAGAGAGCUCUGGUGUGACGUGAUGGGGACUUGUGGCUAGAGAAGAUCUUCAAUGGCCUUAAGCUCUGGGUCUUGCU,0.277
CCUUCUAAUUUUGGAGAUUUUUCUCAGAAUGUUUCUACACCUACUGAACAGCAGCAGCCAUUAGCUCAAAAUCCUUCAGGGAAAACAGAGUAUAUGGCUUUUCCAAAACCCUUUGAAAGC,0.103

# Series 3 — method: DHFR PCA, deep sequencing; matrix: yeast; with: (+)-ABA 0.11 µM; baseline: wild-type fitted maximum; direction: higher = stronger binding
# Target: ABI1, truncated, D143A, DHFR fusion (Arabidopsis thaliana)
# Setting: methotrexate growth selection, single substitutions
# Starting sequence: PYL1, truncated, DHFR fusion (Arabidopsis thaliana); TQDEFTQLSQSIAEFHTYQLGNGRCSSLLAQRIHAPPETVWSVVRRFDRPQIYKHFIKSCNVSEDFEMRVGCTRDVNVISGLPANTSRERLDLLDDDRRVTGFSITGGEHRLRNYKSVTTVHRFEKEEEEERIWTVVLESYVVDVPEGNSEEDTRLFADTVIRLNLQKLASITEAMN; partner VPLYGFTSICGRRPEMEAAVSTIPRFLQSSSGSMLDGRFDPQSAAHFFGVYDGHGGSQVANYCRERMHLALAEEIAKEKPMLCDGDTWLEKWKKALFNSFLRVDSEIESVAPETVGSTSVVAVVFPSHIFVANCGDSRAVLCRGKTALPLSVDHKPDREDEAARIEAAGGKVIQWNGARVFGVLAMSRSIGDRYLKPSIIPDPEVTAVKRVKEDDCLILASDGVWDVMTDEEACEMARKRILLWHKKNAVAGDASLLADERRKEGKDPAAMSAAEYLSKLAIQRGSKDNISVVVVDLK
Change,relative binding score
I79D,2.92%
E151Q,24.5%
I172D,-13.2%
L169S,-3.55%
L93Q,5.39%
V121C,-8.5%
L82D,8.78%
V118W,-2.78%
T119E,-12%
M176G,12.5%
E174Y,5.16%
L93R,8.67%
E14K,13%

# Series 4 — method: Sort-seq; item: YFP reporter; matrix: E. coli; setting: PhoQ-PhoP variant library; with: 10 µM Mg2+; baseline: high Mg2+ state; direction: higher = stronger signaling
# Substance: PhoQ, residues 284 288 289 292 302 303 TGYLSA
target,fold induction
"PhoP, residues 12 14 15 18 19 SFCSL (Escherichia coli, UniProt P23836)",4.85
"PhoP, residues 12 14 15 18 19 AYFRS (Escherichia coli, UniProt P23836)",14.2
"PhoP, residues 12 14 15 18 19 HHYTI (Escherichia coli, UniProt P23836)",2.94

# Excerpt of the above (series 3):
Change,relative binding score
V121C,-8.5%
L82D,8.78%
V118W,-2.78%
T119E,-12%
M176G,12.5%
E174Y,5.16%
